Experimental data gathered from unrelated publications.
Lines come from different studies, so protocols differ. Numbers after ± are the reported error.

O=C([O-])c1cccc(CN(CCN(Cc2cn(Cc3ccccc3)nn2)Cc2cccc(C(=O)[O-])n2)Cc2cn(Cc3ccccc3)nn2)n1.[64Cu+2]  tissue uptake (healthy athymic nude mice, stomach; intravenous, 15 min): 2.64 %ID/g
N=C(N)NCCC[C@H](NC(=O)CON=C[C@H](F)[C@@H](O)[C@H](O)[C@H](O)CO)C(=O)NCC(=O)N[C@@H](CC(=O)O)C(=O)O [fluorine-18 labelled]  tissue ratio (nude mice, U-87 MG xenograft; intravenous, 0.5 h; relative to: tumour over blood): 2.19 ± 0.55
CCCC[C@@H]1NC(=O)[C@@H](NC(=O)[C@H](CCC(=O)O)NC(=O)CNC(=O)CN2CCN(CC(=O)O)CCN(CC(=O)O)CCN(CC(=O)O)CC2)CCCCNC(=O)C[C@@H](C(N)=O)NC(=O)[C@H](C(C)C)NC(=O)[C@@H]2CCCN2C(=O)[C@H](CCCNC(=N)N)NC(=O)CNC(=O)[C@H](Cc2c[nH]c3ccccc23)NC(=O)[C@H](CCCNC(=N)N)NC(=O)[C@@H](Cc2ccccc2)NC(=O)[C@H](Cc2c[nH]cn2)NC(=O)[C@H](CCC(=O)O)NC1=O [gallium-67 labelled]  tissue uptake (C57 mice, B16/F10 lung metastases, skin; intravenous, 0.037 MBq/mouse, 4 h): 0.33 ± 0.12 %ID/g
CC(C)[C@H](NC(=O)[C@@H]1CCCN1C(=O)[C@H](CCCNC(=N)N)NC(=O)[C@H](CS)NC(=O)[C@H](Cc1c[nH]c2ccccc12)NC(=O)[C@H](CCCNC(=N)N)NC(=O)[C@@H](Cc1ccccc1)NC(=O)[C@H](Cc1c[nH]cn1)NC(=O)[C@H](CCC(=O)O)NC(=O)[C@H](CS)NC(=O)[C@H](CS)NC(=O)[C@@H]1CC(=O)N[C@@H](CCCNC(=N)N)C(=O)NCC(=O)N[C@@H](CC(=O)O)C(=O)N[C@H](Cc2ccc(O)cc2)C(=O)N1)C(N)=O [technetium-99m labelled]  tissue uptake (C57 mice B16/F1 melanoma female, kidneys; iv, 0.037 MBq, 0.5 h): 29.3 ± 2.98 %ID/g
NC12CNCCNCC(NCc3ccc(CNC(=O)CCCC(=O)NCc4ccc(-c5nncnn5)cc4)cc3)(CNCCNC1)CNCCNC2.[64Cu+2]  tissue uptake (athymic nude mice SW1222 xenograft, blood; 1 h post injection, 24 h accumulation interval, together with: huA33-TCO pretargeting): 4.2 ± 0.8 %ID/g
O=C([O-])CN1CCN(CC(=O)[O-])CCN(CC(=O)[O-])CCN(CC(=O)[O-])CC1.[64Cu+2]  tissue uptake (healthy athymic nude mice, blood; intravenous, 24 h): 0.16 %ID/g
CCCC[C@H](NC(=O)CNC(=O)CNC(=O)CN1CCN(CC(=O)O)CCN(CC(=O)O)CC1)C(=O)N[C@H]1CC(=O)NCCCC[C@@H](C(N)=O)NC(=O)[C@H](Cc2c[nH]c3ccccc23)NC(=O)[C@H](CCCNC(=N)N)NC(=O)[C@@H](Cc2ccccc2)NC(=O)[C@H](Cc2c[nH]cn2)NC1=O [gallium-67 labelled]  tissue uptake (C57 mice, female, B16/F1 melanoma, intestines; intravenous, 0.037 MBq, 0.5 h): 1.86 ± 0.24 %ID
CN1C(=O)[C@@H](Cc2ccc(O)c(I)c2)NC(=O)CNC(=O)[C@H](Cc2ccc3ccccc3c2)NC(=O)[C@H](CCCNC(=N)N)NC(=O)[C@H]1CCCNC(=O)c1ccc(CNC(=O)CN2CCN(CC(=O)O)CCN(CC(=O)O)CCN(CC(=O)O)CC2)cc1 [lutetium-177 labelled]  tissue uptake (measured: 177Lu radioactivity; female CB-17 SCID mice, Daudi xenograft, adrenals; intravenous, 0.16 nmol per mouse, 6 h): 0.64 ± 0.13 %ID/g
